Results pooled from the literature.
A part holds a random share of what one study measured. “And” joins repeats or separate records; there may be more than shown. Changes are numbered by the printed parent chain.

Block 1
SMILES: CC(C)(C(=O)O)[C@H](NC(=O)Cc1cccc(I)c1)c1ccc2oc(=O)[nH]c2c1
Method: Incucyte 3D growth
Concentration: 30 µM
Direction: higher = more growth
cell line | time | spheroid area
PC-9 | 222 h | 1.85e+09 a.u. and 1.79e+09 a.u. and 1.77e+09 a.u. and 1.83e+09 a.u.
KP-4 | 72 h | 1.49e+07 a.u. and 1.4e+07 a.u. and 1.65e+07 a.u. and 1.46e+07 a.u. and 1.64e+07 a.u. and 1.86e+07 a.u.
KP-4 | 264 h | 8.64e+07 a.u. and 2.57e+07 a.u. and 9.72e+07 a.u. and 4.48e+07 a.u. and 6.23e+07 a.u. and 5.97e+07 a.u.
A375 | 144 h | 1.05e+08 a.u. and 8.66e+07 a.u. and 8.22e+07 a.u. and 7.67e+07 a.u. and 9.31e+07 a.u. and 8.54e+07 a.u.
NCI-H1437 | 72 h | 2.35e+07 a.u. and 2.91e+07 a.u. and 2.79e+07 a.u. and 3.03e+07 a.u. and 2.47e+07 a.u.
A375 | 60.52 h | 3.63e+07 a.u. and 3.48e+07 a.u. and 4.3e+07 a.u. and 3.08e+07 a.u. and 3.51e+07 a.u. and 2.22e+07 a.u.
MEL-JUSO | 234.52 h | 1.54e+07 a.u. and 2.02e+07 a.u. and 2.9e+07 a.u. and 1.69e+07 a.u. and 1.83e+07 a.u. and 1.71e+07 a.u.
A375 | 180.52 h | 1.21e+08 a.u. and 1.45e+08 a.u. and 1.16e+08 a.u. and 1.41e+08 a.u. and 1.34e+08 a.u. and 1.33e+08 a.u.

Block 2
Organism: Sarcocystis neurona
Read-out: parasite growth
Concentration: concentration not given
Setting: secondary screen
Structure (SMILES) | inhibition
COc1ccc(C(=O)NCc2ccc(OCCN(C)C)cc2)cc1OC.Cl | -21.7%
C[N+]1(C)CCCC(OC(=O)C(O)(c2ccccc2)c2ccccc2)C1.[Br-] (centres unmarked) | -14.9%
O=C(O)c1cc2ccccc2c(Cc2c(O)c(C(=O)O)cc3ccccc23)c1O.OCCOCCN1CCN(C(c2ccccc2)c2ccc(Cl)cc2)CC1 | -11.3%
Nc1nc(=O)[nH]cc1F | -1.5%
CN(C)CCC=C1c2ccccc2CCc2ccccc21.Cl | -13.1%
Cl.Cn1c(NCCN(CCO)CCCc2ccc([N+](=O)[O-])cc2)cc(=O)n(C)c1=O | -32.7%
CC[C@@H]1C(=O)OC[C@@H]1Cc1cncn1C.Cl | -17.6%
CN(C)CC[C@@H](c1ccc(Br)cc1)c1ccccn1.O=C(O)/C=C\C(=O)O (single isomer, unassigned) | -3%

Single results of other studies
P1: viral docking peptide; PTARRRLLHDLDT; partner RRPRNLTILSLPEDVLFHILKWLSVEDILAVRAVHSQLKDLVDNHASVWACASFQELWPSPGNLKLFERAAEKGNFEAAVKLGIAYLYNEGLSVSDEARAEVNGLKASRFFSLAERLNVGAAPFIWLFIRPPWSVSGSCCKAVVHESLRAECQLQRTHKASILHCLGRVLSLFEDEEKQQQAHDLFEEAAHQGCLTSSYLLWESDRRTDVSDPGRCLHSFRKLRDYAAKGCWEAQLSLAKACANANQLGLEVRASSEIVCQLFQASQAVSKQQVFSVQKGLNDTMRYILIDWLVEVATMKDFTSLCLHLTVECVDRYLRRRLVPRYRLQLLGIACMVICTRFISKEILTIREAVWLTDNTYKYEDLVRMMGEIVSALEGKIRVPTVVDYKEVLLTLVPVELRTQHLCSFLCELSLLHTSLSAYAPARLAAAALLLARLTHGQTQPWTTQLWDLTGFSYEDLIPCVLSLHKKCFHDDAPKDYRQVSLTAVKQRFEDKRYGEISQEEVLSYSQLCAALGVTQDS
Molecule | tested on | assay | system | conditions | how to read | endpoint | value
CC(=O)N[C@@H](Cc1c[nH]c2ccccc12)C(=O)N[C@@H](CCC(=O)C=[N+]=[N-])C(=O)OC(C)C | – | histopathology | mouse C57BL/6 CES1-/-, GI tissue | subcutaneous, 0.26 mg/kg | direction not given | GI inflammation score | 0
Cc1cc2c(-c3ccco3)cnc(N[C@H]3CCN(C)C[C@@H]3C(=O)NC3CCCCC3)c2[nH]c1=O | D(1B) dopamine receptor (DRD5, Homo sapiens, UniProt P21918) | ligand displacement | – | 10 µM | – | inhibition | 35.4%
P1 R5K | CCNF, cyclin fold, Cln2 fusion (human) | yeast growth competition, sequencing | yeast | strong parent motif | relative to: not given, higher = stronger binding | normalised enrichment score | 1.03
CC(C)n1cnc(-c2ccc(F)cc2)c1-c1ncc(C(=O)Nc2ccc(N3CCN(C)CC3)cc2)[nH]1 | – | – | human, idiopathic pulmonary fibrosis | 30 mg once daily, trial, treatment-emergent | – | patients with Hypothyroidism | 0%

Excerpt of the above (block 1):
cell line | time | spheroid area
NCI-H1437 | 72 h | 2.35e+07 a.u. and 2.91e+07 a.u. and 2.79e+07 a.u. and 3.03e+07 a.u. and 2.47e+07 a.u.
KP-4 | 72 h | 1.49e+07 a.u. and 1.4e+07 a.u. and 1.65e+07 a.u. and 1.46e+07 a.u. and 1.64e+07 a.u. and 1.86e+07 a.u.
A375 | 144 h | 1.05e+08 a.u. and 8.66e+07 a.u. and 8.22e+07 a.u. and 7.67e+07 a.u. and 9.31e+07 a.u. and 8.54e+07 a.u.
